Experimental data from different studies.
Every numbered part comes from another study and shows a few of its results, in no order.
UniProt P08069, sequence (whole entry, looked up): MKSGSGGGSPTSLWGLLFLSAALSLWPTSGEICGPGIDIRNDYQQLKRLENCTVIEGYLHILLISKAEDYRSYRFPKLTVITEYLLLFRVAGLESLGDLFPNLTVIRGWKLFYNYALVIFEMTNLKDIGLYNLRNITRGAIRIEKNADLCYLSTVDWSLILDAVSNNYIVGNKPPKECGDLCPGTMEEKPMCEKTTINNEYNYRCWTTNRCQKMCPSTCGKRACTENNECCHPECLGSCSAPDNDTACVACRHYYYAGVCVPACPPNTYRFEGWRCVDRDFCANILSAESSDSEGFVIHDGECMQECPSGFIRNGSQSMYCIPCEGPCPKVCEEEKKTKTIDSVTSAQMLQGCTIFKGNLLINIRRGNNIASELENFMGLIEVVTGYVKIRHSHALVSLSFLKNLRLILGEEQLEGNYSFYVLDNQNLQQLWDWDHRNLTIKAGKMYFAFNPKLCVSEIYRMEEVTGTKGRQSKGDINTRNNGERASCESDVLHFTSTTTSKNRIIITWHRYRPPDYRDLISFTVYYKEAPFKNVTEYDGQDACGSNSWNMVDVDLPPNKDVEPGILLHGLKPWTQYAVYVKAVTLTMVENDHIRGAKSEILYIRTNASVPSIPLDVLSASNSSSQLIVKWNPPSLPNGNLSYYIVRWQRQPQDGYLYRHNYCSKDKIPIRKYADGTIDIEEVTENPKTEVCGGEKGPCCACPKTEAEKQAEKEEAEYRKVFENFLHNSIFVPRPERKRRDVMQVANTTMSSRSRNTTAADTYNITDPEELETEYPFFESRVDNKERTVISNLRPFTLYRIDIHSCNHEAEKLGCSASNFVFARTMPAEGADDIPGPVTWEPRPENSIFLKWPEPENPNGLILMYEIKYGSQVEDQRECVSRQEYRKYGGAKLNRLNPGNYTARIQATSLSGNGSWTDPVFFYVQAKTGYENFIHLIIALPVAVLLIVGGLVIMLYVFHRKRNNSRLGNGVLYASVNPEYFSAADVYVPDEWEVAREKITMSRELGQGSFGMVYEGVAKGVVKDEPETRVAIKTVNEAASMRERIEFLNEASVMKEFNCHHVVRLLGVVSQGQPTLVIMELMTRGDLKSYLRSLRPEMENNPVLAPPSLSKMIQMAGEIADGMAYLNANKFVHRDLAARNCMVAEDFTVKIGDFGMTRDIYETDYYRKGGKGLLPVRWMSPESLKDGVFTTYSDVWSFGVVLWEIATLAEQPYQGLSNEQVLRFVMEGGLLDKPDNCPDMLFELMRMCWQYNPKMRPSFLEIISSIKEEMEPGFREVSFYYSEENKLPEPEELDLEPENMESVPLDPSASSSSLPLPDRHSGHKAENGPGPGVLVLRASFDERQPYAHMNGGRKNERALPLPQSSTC
UniProt Q9UIK4, sequence (whole entry, looked up): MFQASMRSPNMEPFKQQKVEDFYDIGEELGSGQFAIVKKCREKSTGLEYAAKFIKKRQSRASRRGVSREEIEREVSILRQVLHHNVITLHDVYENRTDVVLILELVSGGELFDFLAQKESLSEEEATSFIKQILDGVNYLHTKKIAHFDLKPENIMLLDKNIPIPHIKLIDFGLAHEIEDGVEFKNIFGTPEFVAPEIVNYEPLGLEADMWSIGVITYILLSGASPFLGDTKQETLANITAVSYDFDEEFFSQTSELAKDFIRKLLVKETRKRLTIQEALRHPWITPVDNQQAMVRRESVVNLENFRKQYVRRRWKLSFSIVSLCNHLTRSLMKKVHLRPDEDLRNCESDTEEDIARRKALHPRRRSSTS
UniProt P51812, sequence (whole entry, looked up): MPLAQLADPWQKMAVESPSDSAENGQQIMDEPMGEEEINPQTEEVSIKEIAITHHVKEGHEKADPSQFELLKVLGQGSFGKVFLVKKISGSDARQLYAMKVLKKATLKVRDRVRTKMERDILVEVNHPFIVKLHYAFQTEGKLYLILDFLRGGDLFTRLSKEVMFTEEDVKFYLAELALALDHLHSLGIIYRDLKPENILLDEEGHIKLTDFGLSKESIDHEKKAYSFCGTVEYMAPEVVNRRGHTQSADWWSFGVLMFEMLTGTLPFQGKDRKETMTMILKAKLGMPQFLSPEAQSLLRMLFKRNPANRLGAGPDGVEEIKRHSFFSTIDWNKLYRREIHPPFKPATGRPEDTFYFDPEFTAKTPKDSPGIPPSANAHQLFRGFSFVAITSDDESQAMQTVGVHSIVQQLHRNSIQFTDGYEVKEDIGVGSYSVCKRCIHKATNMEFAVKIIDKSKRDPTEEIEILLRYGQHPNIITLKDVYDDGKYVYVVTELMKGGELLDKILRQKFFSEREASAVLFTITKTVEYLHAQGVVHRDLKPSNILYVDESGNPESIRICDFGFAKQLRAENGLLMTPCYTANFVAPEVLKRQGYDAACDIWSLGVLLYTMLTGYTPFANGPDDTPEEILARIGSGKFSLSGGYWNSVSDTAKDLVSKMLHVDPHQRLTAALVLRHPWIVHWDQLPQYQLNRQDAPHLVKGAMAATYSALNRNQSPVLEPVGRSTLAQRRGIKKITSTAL
UniProt Q96SB4, sequence (whole entry, looked up): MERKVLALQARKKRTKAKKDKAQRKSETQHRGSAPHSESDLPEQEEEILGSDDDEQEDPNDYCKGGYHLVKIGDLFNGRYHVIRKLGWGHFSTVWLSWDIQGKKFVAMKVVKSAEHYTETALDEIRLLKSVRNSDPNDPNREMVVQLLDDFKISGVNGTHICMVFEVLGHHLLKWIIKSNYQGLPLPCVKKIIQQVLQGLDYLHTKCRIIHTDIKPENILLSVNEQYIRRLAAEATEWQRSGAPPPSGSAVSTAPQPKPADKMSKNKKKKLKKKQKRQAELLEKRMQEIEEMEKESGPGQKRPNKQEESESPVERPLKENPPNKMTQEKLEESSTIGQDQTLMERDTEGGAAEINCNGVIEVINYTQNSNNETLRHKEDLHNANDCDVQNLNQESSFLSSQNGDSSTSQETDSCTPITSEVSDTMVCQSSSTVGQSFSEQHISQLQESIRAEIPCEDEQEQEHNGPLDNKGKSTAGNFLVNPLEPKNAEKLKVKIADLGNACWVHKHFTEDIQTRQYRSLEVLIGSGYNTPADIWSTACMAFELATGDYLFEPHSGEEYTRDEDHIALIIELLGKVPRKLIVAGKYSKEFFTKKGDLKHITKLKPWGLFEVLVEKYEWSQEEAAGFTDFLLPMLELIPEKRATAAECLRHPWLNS
UniProt P00519, sequence (whole entry, unmodified, looked up): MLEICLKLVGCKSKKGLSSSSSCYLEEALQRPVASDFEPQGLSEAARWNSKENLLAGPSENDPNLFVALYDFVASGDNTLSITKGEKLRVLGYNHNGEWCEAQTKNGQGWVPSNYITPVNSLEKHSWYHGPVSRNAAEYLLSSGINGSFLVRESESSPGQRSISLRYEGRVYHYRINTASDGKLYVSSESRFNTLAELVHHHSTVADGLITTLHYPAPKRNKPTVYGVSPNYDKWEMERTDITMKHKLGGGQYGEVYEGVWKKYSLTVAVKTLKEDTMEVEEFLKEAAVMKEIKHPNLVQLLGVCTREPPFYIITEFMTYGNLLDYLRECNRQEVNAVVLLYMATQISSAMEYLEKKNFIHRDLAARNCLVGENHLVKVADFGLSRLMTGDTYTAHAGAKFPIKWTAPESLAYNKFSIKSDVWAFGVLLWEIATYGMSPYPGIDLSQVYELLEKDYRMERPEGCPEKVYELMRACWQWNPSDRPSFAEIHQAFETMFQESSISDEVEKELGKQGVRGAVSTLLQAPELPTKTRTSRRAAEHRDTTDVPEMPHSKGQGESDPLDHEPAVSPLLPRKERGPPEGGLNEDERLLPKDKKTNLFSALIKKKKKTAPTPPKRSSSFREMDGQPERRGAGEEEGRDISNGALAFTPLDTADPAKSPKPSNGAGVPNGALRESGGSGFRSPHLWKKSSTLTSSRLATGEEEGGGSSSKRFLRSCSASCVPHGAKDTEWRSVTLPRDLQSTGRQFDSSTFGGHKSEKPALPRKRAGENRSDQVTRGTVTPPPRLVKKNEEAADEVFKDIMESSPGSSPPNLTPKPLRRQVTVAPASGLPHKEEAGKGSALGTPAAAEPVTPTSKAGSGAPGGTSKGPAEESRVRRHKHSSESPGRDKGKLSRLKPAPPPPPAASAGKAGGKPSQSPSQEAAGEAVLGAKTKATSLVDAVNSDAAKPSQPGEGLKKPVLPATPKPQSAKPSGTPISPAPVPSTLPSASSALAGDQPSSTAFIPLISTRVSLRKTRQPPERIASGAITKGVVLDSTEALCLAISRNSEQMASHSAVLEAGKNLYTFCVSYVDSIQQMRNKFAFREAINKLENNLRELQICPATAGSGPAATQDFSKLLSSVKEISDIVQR
UniProt Q14012, sequence (whole entry, looked up): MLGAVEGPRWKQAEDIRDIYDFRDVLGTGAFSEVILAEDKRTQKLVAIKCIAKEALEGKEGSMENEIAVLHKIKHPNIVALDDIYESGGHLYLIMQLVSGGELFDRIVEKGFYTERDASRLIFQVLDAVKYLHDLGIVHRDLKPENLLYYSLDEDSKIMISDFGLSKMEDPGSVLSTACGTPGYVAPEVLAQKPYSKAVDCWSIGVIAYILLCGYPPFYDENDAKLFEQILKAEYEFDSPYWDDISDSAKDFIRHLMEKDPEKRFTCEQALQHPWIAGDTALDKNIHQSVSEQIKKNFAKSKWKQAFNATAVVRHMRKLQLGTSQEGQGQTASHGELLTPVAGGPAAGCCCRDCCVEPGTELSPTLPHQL

Sample 1 — method: RNAcompete; molecule type: RNA; matrix: in vitro; tested at: 20 nM; setting: 7-mer, probes averaged, single round; relative to: mean of 7-mers; reading: higher = stronger binding
Target: PABPC1L2, full length, GST fusion (mouse, UniProt A0ABA7IW68)
Construct (chain): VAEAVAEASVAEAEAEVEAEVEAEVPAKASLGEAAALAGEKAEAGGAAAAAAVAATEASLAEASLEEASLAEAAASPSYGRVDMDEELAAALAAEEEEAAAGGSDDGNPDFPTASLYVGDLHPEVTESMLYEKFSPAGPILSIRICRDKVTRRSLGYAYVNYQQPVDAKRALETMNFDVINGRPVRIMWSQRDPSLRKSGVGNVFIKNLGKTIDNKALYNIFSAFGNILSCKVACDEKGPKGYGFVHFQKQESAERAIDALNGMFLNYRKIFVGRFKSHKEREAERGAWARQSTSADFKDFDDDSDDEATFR
Strand	7-mer Z-score
GUGGCUC	-0.0464
CGAACUG	-0.17
UUCAUCC	-0.485
GACCCAG	-0.119
UGUAAGU	-0.144
AGGGGAG	0.456
UAAACGG	0.204
UCCCCCC	-0.485

Sample 2 — tested at: 1 µM
SMILES: Nc1cnc(N2CCc3cc(S(=O)(=O)Nc4c(F)cc(Cl)cc4F)cc(N4CCCC4=O)c32)nc1
target	assay	remaining binding [%]
STK17B (Homo sapiens, UniProt O94768)	cell-free assay, competition with immobilised ligand	100
PNCK (Homo sapiens, UniProt Q6P2M8)	cell-free assay, competition with immobilised ligand	67
CDK5 (Homo sapiens, UniProt Q00535)	cell-free assay, competition with immobilised ligand	100
Tyrosine-protein kinase ABL1, phosphorylated (ABL1, Homo sapiens, UniProt P00519, F317I)	binding	100
STK24 (Homo sapiens, UniProt Q9Y6E0)	cell-free assay, competition with immobilised ligand	100
CDK7 (Homo sapiens, UniProt P50613)	cell-free assay, competition with immobilised ligand	100
DAPK2 (Homo sapiens, UniProt Q9UIK4)	cell-free assay, competition with immobilised ligand	91
MAP4K1 (Homo sapiens, UniProt Q92918)	cell-free assay, competition with immobilised ligand	83
MAP3K7 (Homo sapiens, UniProt O43318)	cell-free assay, competition with immobilised ligand	100
MERTK (Homo sapiens, UniProt Q12866)	cell-free assay, competition with immobilised ligand	100
PKMYT1 (Homo sapiens, UniProt Q99640)	cell-free assay, competition with immobilised ligand	99
CSNK1G1 (Homo sapiens, UniProt Q9HCP0)	cell-free assay, competition with immobilised ligand	97
PRKACB (Homo sapiens, UniProt P22694)	cell-free assay, competition with immobilised ligand	100
SRPK3 (Homo sapiens, UniProt Q9UPE1)	cell-free assay, competition with immobilised ligand	100
PTK6 (Homo sapiens, UniProt Q13882)	cell-free assay, competition with immobilised ligand	100
BRAF (Homo sapiens, UniProt P15056, V600E)	cell-free assay, competition with immobilised ligand	100

Sample 3 — observed: enzyme activity; mode: inhibitor; tested at: 0.5 µM; relative to: control
Structure (SMILES): O=C1NC(=O)C(c2c[nH]c3ccccc23)=C1c1c[nH]c2ccccc12
target	remaining activity
CAMKK1 (Homo sapiens, UniProt Q8N5S9)	114%
SRPK1 (Homo sapiens, UniProt Q96SB4)	89.4%
CAMK1 (Homo sapiens, UniProt Q14012)	105%
RPS6KA3 (Homo sapiens, UniProt P51812)	46.6%
JAK1 (Homo sapiens, UniProt P23458)	101%
CLK1 (Homo sapiens, UniProt P49759)	111%
EPHA2 (Homo sapiens, UniProt P29317)	91.6%
CSNK1E (Homo sapiens, UniProt P49674)	92.4%
PRKCZ (Homo sapiens, UniProt Q05513)	96.2%
MAP3K20 (Homo sapiens, UniProt Q9NYL2)	107%
IGF1R (Homo sapiens, UniProt P08069)	80%
FLT1 (Homo sapiens, UniProt P17948)	53.9%
Cyclin-dependent kinase 2, with cyclin E (CDK2, Homo sapiens, UniProt P24941)	71.4%
TEC (Homo sapiens, UniProt P42680)	145%
PAK6 (Homo sapiens, UniProt Q9NQU5)	92.4%
TYRO3 (Homo sapiens, UniProt Q06418)	101%
PAK1 (Homo sapiens, UniProt Q13153)	83.5%

Sample 4 — method: Sort-seq; item: YFP reporter; matrix: E. coli; setting: PhoQ-PhoP variant library; together with: 10 µM Mg2+; relative to: high Mg2+ state; reading: higher = stronger signaling
Substance: PhoQ, residues 284 288 289 292 302 303 NLMGRA
target	fold induction
PhoP, residues 12 14 15 18 19 GMGLL (Escherichia coli, UniProt P23836)	12.1
PhoP, residues 12 14 15 18 19 LFHKL (Escherichia coli, UniProt P23836)	4.6
PhoP, residues 12 14 15 18 19 QQAYL (Escherichia coli, UniProt P23836)	17.4

For quick reference, copied from above (sample 2):
target	assay	remaining binding [%]
DAPK2 (Homo sapiens, UniProt Q9UIK4)	cell-free assay, competition with immobilised ligand	91
MAP4K1 (Homo sapiens, UniProt Q92918)	cell-free assay, competition with immobilised ligand	83
MAP3K7 (Homo sapiens, UniProt O43318)	cell-free assay, competition with immobilised ligand	100
